Assay results of several laboratories.
Lines come from different studies, so protocols differ. Several values in a cell are separate wells, animals, samples, runs or records. ± gives the spread as reported.
CYP3A7: Cytochrome P450 3A7 (CYP3A7, Homo sapiens, UniProt P24462)

SMILES	target or system	test	test system	conditions	how to read	endpoint	value
O=S(=O)(NCCNC/C=C/c1ccc(Br)cc1)c1cccc2cnccc12	PKA	inhibitor	mouse zygotes	20 µM, Post hCG injection, 96 h, early embryonic development		dead embryos	5% and 5.26% and 0%
CC1(C)[C@H](C(=O)OCc2cccc(Oc3ccccc3)c2)[C@@H]1C=C(Cl)Cl	human cytosolic CES1	IVIVE from expressed enzymes	human, 5 years old, expressed human CES1	0.1 µM	relative to: total hepatic CLint in vivo	relative enzyme contribution	31.7%
Cc1cc2nc3c(=O)[nH]c(=O)nc-3n(C[C@H](O)[C@H](O)[C@H](O)COP(=O)(O)O)c2cc1C	nfsB (Escherichia coli K-12, UniProt P38489, K14R)	bound cofactor redox, redox titration		pH 7.0, 25 °C, anaerobic		midpoint potential	-193 ± 4 mV
CCCC[C@H](NC(C)=O)C(=O)N[C@@H](CO)C(=O)N[C@H](C(=O)N1CCC[C@H]1C(=O)N[C@@H](C)C(=O)N[C@@H](CCCNC(=N)N)C(=O)N[C@@H](CCCNC(=N)N)C(=O)N[C@@H](CCCNC(=N)N)C(=O)N[C@@H](CC(C)C)C(=O)N[C@@H](CCCC)C(=O)N[C@@H](CCCNC(=N)N)C(=O)N[C@@H](CC(=O)O)C(=O)N[C@@H](Cc1ccccc1)C(=O)N[C@@H](CCCCN)C(=O)N[C@@H](CCCNC(=N)N)C(=O)N[C@@H](CC(C)C)C(=O)N[C@@H](CCC(N)=O)C(N)=O)[C@@H](C)O	Proteinase K (PROK, Engyodontium album, UniProt P06873)	proteolytic stability, LC-MS		25 µM, 41.0 min, pH 7.4		remaining intact peptide	16%
CCN(C)C(=O)Oc1cccc([C@H](C)N(C)C)c1	H+/organic cation antiporter	cell uptake	hCMEC/D3			intrinsic clearance	10.3 µL/min/mg protein
CC(C)CC(=O)OC[C@H]1O[C@@](C#N)(c2ccc3c(N)ncnn23)[C@H](O)[C@@H]1O	ABCB1 (Homo sapiens, UniProt P08183)	apical to basolateral transport	Caco-2	90 µM, 2 h, together with: zosuquidar 25 µM		recovery	55.4%
O=S(=O)(O)C(F)(F)C(F)(F)C(F)(F)C(F)(F)C(F)(F)C(F)(F)F	CYP3A7	type I binding spectrum		pH 7.4, second binding event		Hill coefficient	1.25
COc1cc2c(Oc3ccc4[nH]c(C)cc4c3F)ccnc2cc1OCC1(N)CC1			paediatric recurrent refractory sarcoma	10 mg		Hypothyroidism incidence	100%
CC1=C(C)C(=O)C(CCCCC#CCCCC#CCO)=C(C)C1=O	Plasmodium falciparum		D10			IC50	12.6 µM
CC1(C)C(C=C(Cl)Cl)C1C(=O)OC(C#N)c1ccc(F)c(Oc2ccccc2)c1 (stereo not shown)	human microsomal CES2	IVIVE from expressed enzymes	human, 5 years old, expressed human CES2	0.1 µM	relative to: total hepatic CLint in vivo	relative enzyme contribution	0.24%
CN(C)c1ccc(O)c2c1C[C@H]1C[C@H]3[C@H](N(C)C)C(O)=C(C(N)=O)C(=O)[C@@]3(O)C(O)=C1C2=O	Plasmodium falciparum		D10			IC50	7.94 µM
Cn1nccc1[C@]1(CNC(=O)c2ccc(F)c(F)c2-c2ccc(C(F)(F)F)cc2)NC(=O)NC1=O	CYP3A4 (human)		recombinant CYP3A4	together with: midazolam	no inhibition up to value	IC50	> 20 µM
CC(C)[C@H](C(=O)O[C@H](C#N)c1cccc(Oc2ccccc2)c1)c1ccc(Cl)cc1	human cytosolic CES1	IVIVE from expressed enzymes	human, 5 years old		relative to: total hepatic CLint in vivo	relative enzyme contribution	29.1%
O=C(O)C(F)(F)C(F)(F)C(F)(F)C(F)(F)C(F)(F)C(F)(F)C(F)(F)F	SLC22A8 (Homo sapiens, UniProt Q8TCC7)	uptake, substrate	HEK293 cells stably expressing SLC22A8, HBSS with HEPES	pH 7.4		CLint	7.12 ± 1.51 µL/min/mg
C[C@H]1CN(c2n[nH]c3nc(N[C@H]4CC[C@H](NS(=O)(=O)CCC(F)(F)F)CC4)ncc23)CCO1	AKT2 (Homo sapiens, UniProt P31751)	biochemical				IC50	≥ 20 µM
CC1(C)C(/C=C(\Cl)C(F)(F)F)C1C(=O)OC(C#N)c1cccc(Oc2ccccc2)c1 (stereo not shown)	human cytosolic CES1	IVIVE from expressed enzymes	human, 5 years old		relative to: total hepatic CLint in vivo	relative enzyme contribution	38.4%
O=S(=O)(O)C(F)(F)C(F)(F)C(F)(F)C(F)(F)C(F)(F)C(F)(F)C(F)(F)C(F)(F)F	CYP3A7	enzyme activity, inhibitor		100 µM, together with: dibenzylfluorescein 0.15 µM	relative to: DMSO	inhibition	71.5 ± 1.66%
C[C@H](NC(=O)[C@H](Cc1cnc[nH]1)NC(=O)[C@H](CO)NC(=O)[C@@H](N)CC(=O)O)C(=O)N[C@@H](CCCCN)C(=O)N[C@@H](CCCNC(=N)N)C(=O)N[C@@H](Cc1cnc[nH]1)C(=O)N[C@@H](Cc1cnc[nH]1)C(=O)NCC(=O)N[C@@H](Cc1ccc(O)cc1)C(=O)N[C@@H](CCCCN)C(=O)N[C@@H](CCCNC(=N)N)C(=O)N[C@@H](CCCCN)C(=O)N[C@@H](Cc1ccccc1)C(=O)N[C@@H](Cc1cnc[nH]1)C(=O)N[C@@H](CCC(=O)O)C(=O)N[C@@H](CCCCN)C(=O)N[C@@H](Cc1cnc[nH]1)C(=O)N[C@@H](Cc1cnc[nH]1)C(=O)N[C@@H](CO)C(=O)N[C@@H](Cc1cnc[nH]1)C(=O)N[C@@H](CCCNC(=N)N)C(=O)NCC(=O)N[C@@H](Cc1ccc(O)cc1)C(=O)O	Secreted aspartic protease 3 (SAP3, Candida albicans, UniProt P0CY29)	proteolytic degradation, gel densitometry		150 µg/mL, 2 h, pH 7.4, together with: SAP3 1.6 µg/mL		intact peptide remaining	43.3%
CC(C)=CC1C(C(=O)OC(C#N)c2cccc(Oc3ccccc3)c2)C1(C)C (stereo not shown)	human cytosolic CES1	IVIVE from expressed enzymes	human, 6 months old		relative to: total hepatic CLint in vivo	relative enzyme contribution	30.1%
CN1CCN(Cc2ccc(NC(=O)c3cncc(C#Cc4cnc(N)c5ncccc45)c3)cc2C(F)(F)F)CC1	SCN5A (Homo sapiens, UniProt Q14524)	sodium current, inhibitor				IC50	> 30 µM
CC(=O)O[C@@H]1C[C@@]23C[C@@]24CC[C@H](O[C@@H]2OC[C@@H](O)[C@H](O)[C@H]2O)C(C)(C)[C@@H]4CC[C@H]3[C@]2(C)C[C@@H]3O[C@@]4(C[C@@H](C)[C@@H]3[C@@]12C)OC[C@@]1(C)O[C@@H]41	Nr1i2 (Mus musculus, UniProt O54915)	luciferase reporter, activator	HepG2 transfected with mouse PXR	10 to 50 µM, 24 h	relative to: vehicle	reporter activation	< 1.5 fold
COc1ccc2c(c1)CN(C(=O)CCN1CCC(Cc3ccccc3)CC1)CCS2	Cholinesterase (BCHE, Homo sapiens, UniProt P06276)	inhibitor		with Triton		IC50	7.18 ± 2.12 µM
